Measured values from different studies.
Numbered parts are unrelated; each lists some results of a single study. Positions count from the first letter of the parent shown.

Block 1
Target: Sal-like protein 4, full length isoform B (SALL4, Homo sapiens, UniProt Q9UJQ4-2, residues 1-616)
Method: universal PBM
Form: double-stranded DNA, one strand shown
Sample: in vitro
Concentration: not given
Notes: 8-mer, flanks averaged, mean of replicates
Direction: higher = stronger binding
Sequence | E-score
TACGCTCA | 0.154
ACAAAACT | 0.144
ATTCGTTC | 0.14
GCGTAGCA | -0.0856
TGCTATAA | 0.195
GCTTCGCA | -0.0319
ACAAGATG | 0.164
CATAAGAG | 0.169
AAATGATA | 0.37
CGAGTTAC | -0.0851

Block 2
Target: Prothrombin, mature alpha-thrombin (F2, Homo sapiens, UniProt P00734)
Method: aptamer microarray, sandwich
Form: DNA with 2'F-ANA
Sample: in vitro
Concentration: 200 nM
Notes: whole 15-mer aptamer, many near background
With: Cy3 exosite-II aptamer, 400 nM
Direction: higher = stronger binding
Sequence: GGTTGGTGTGGTTGG
Modification | mean fluorescence intensity [a.u.]
2'F-ANA at 2 5 8 9 10 11 12 14 15 | 46
2'F-ANA at 1 2 5 6 7 10 12 13 15 | 46.1
2'F-ANA at 2 3 6 7 8 9 12 13 14 | 396
2'F-ANA at 1 3 5 7 8 9 11 | 61.8
2'F-ANA at 6 8 14 15 | 189
2'F-ANA at 1 3 6 7 9 13 14 15 | 74.5
2'F-ANA at 1 2 3 4 5 6 8 10 12 13 14 | 49.3
2'F-ANA at 1 3 4 7 8 11 12 13 14 | 90.2
2'F-ANA at 1 5 7 9 13 | 48.4
2'F-ANA at 2 5 6 9 11 13 14 | 56.6
2'F-ANA at 3 8 9 11 14 15 | 598
2'F-ANA at 1 2 6 7 8 10 11 12 15 | 65.9
2'F-ANA at 2 4 5 6 7 9 10 12 14 15 | 48.3

Block 3
Target: CCND3, cyclin fold, Cln2 fusion (human)
Method: yeast growth competition, sequencing
Sample: yeast
Notes: weak parent motif
Reference: not given
Direction: higher = stronger binding
Parent: DBF4 docking peptide (human); DDIVSKLVFDFVE
Variant | normalised enrichment score
DDIVAKLVFDFVE [S5A] | -0.414
ADIVSKLVFDFVE [D1A] | -0.0322
DDAVSKLVFDFVE [I3A] | -0.301
DDIVSKLVFDFVA [E13A] | -0.317
DDIVSKAVFDFVE [L7A] | -0.295
DDIASKLVFDFVE [V4A] | -0.256

Single results of other studies
Substance | target | test | system | setting | how to read | measurement | value
PhoQ, residues 284 288 289 292 302 303 ASSHFY | PhoP, residues 12 14 15 18 19 GHCSL (Escherichia coli, UniProt P23836) | Sort-seq, measured: YFP reporter | E. coli | PhoQ-PhoP variant library, with: 10 µM Mg2+ | reference: high Mg2+ state, higher = stronger signaling | fold induction | 11.5

Excerpt of the above (block 3):
Variant | normalised enrichment score
DDIVAKLVFDFVE [S5A] | -0.414
ADIVSKLVFDFVE [D1A] | -0.0322
DDAVSKLVFDFVE [I3A] | -0.301
DDIVSKLVFDFVA [E13A] | -0.317
DDIVSKAVFDFVE [L7A] | -0.295
